Measurements from different studies.
Compare with care: the assays were run in different laboratories. Values joined by “and” are separate records of one study, mostly repeats; a detail may differ. ± marks the error that the study gave.
rep nsp3 macrodomain: Replicase polyprotein 1ab, nsp3 macrodomain (rep, Severe acute respiratory syndrome coronavirus 2, UniProt P0DTD1)
rep papain-like protease: Replicase polyprotein 1ab, papain-like protease (rep, Severe acute respiratory syndrome coronavirus 2, UniProt P0DTD1)
rep main protease: Replicase polyprotein 1ab, main protease (rep, Severe acute respiratory syndrome coronavirus 2, UniProt P0DTD1)
rep nsp14 methyltransferase: Replicase polyprotein 1ab, nsp14 methyltransferase (rep, Severe acute respiratory syndrome coronavirus 2, UniProt P0DTD1)

O=C(c1ccc(Br)cc1)N1CCC(c2ccn3ncc(C(=O)N4CCCCC4)c3c2)CC1 has a ΔTm of 0.47 ± 0.04 °C (rep nsp3 macrodomain; thermal stabilisation, differential scanning fluorimetry; 150 µM, SARS-CoV-2).
CCn1ccc(-c2cc(C(C)NC(=O)c3cc(N4CC5CC4CN5C)ccc3C)c3ccccc3n2)n1 (centres unmarked): “GFP/mCherry signal ratio” 42 and 66.8 and 20.5 and 5.86 and 22 and 92.9 (rep papain-like protease; reporter gene, cell-based).
CC(=O)N[C@H](Cc1ccc(O)cc1)C(=O)N[C@@H](CCCNC(=N)N)C(=O)N[C@@H](Cc1ccccc1)C(=O)N[C@H]1CCC[C@@H]1C(=O)N[C@@H](CCCNC(=N)N)C(=O)N[C@@H](CC(N)=O)C(=O)N[C@H]1CCC[C@@H]1C(=O)N[C@H](C(=O)N[C@@H](Cc1ccccc1)C(=O)N[C@H]1CCC[C@@H]1C(=O)N[C@@H](Cc1ccccc1)C(=O)N[C@@H](Cc1ccc(O)cc1)C(=O)N[C@H]1CCC[C@@H]1C(=O)N[C@H](C(=O)N[C@@H](CC(=O)O)C(N)=O)[C@@H](C)O)C(C)C gave a koff of 0.00576 s⁻¹ (rep main protease; binding, SPR).
O=C(O[C@H]1Cc2c(O)cc(O)cc2O[C@@H]1c1cc(O)c(O)c(O)c1)c1cc(O)c(O)c(O)c1 has an Rmax of 47.4 RU (rep main protease; surface plasmon resonance).
CC(=O)Nc1ccc(-c2cnc(N3C(=O)C(Cl)C3c3cc4ccccc4nc3Cl)s2)cc1 (centres unmarked) has a ΔTm of 3 °C (rep papain-like protease; thermal stability, DSF).
For CNC(=O)CC[C@H](Cc1ccccc1)NC(=O)[C@@H](Cc1ccc(Cl)cc1Cl)NC(=O)[C@H](N)Cc1ccccc1[N+](=O)[O-], the remaining activity was 93.9% (rep main protease; 3CL protease activity; 0.04576 µM).
For CC(C)=CCc1c(O)cc(O)c2c(=O)cc(-c3ccc(O)cc3)oc12, ATPase inhibition read “no effect” (Replicase polyprotein 1ab, nsp13 helicase (rep, Severe acute respiratory syndrome coronavirus 2, UniProt P0DTD1); ATPase activity, inhibitor; concentration not given, added: DTT).
For O=C(O)CC[C@H](NC(=O)c1ccccc1[Se][Se]c1ccccc1C(=O)N[C@@H](CCC(=O)O)C(=O)O)C(=O)O, the inhibition was 20.8% and 25.7% (rep main protease; enzyme activity, inhibitor; 40 µM).
CCC1CC(c2ccc(C(=O)O)cc2C)=NN1c1ccc(C#N)c(Cl)c1 (centres unmarked) — result for “lipophilic ligand efficiency”: 2.6 (rep nsp14 methyltransferase).
The kinact/KI of O=C(NCCc1cccc(F)c1)[C@@H](c1cncnc1)N(C(=O)[C@@H](F)Cl)c1ccc(S(F)(F)(F)(F)F)cc1 is reported as 20 M⁻¹ s⁻¹ (rep main protease; enzyme activity, inhibitor).
CCCCCCCCCCCCCCCC[N+](C)(C)CCN(Cc1ccc(OC)cc1)c1ncccn1 — result for “Stern-Volmer constant KSV”: 39600 L/mol (rep main protease; fluorescence quenching; added: 3CLpro 3 µM).
For Cc1ccc(OCCN(C)C)cc1C(=O)N[C@H](C)c1cc(-c2cnn(C3CNC3)c2)nc2ccccc12, “GFP/mCherry signal ratio” read 109 and 96.5 and 101 and 111 and 82 and 107 (rep papain-like protease; reporter gene, cell-based).
With C=CCn1c(C)cc(C(=O)COn2nnc3ccc(S(=O)(=O)N(C)C)cc32)c1C the Hill slope was 1.65 (rep main protease; protease activity, SAMDI-MS).
Cc1ccc(OCCN(C)C)cc1C(=O)N[C@H](C)c1cc(-c2ccco2)nc2ccccc12: “GFP/mCherry signal ratio” 12.8 and 39.7 and 45.6 and 0.467 and 18.1 and 0 (rep papain-like protease; reporter gene, cell-based).
For C[C@](C(=O)NC1CCC(F)(F)CC1)(c1cncnc1)N(C(=O)[C@H](F)Cl)c1ccc(OC(F)(F)F)cc1, the inhibition was 41.6% (rep main protease; enzyme activity, inhibitor; 34 nM).
The reactivation half-life of COc1cccc2[nH]c(C(=O)N[C@@H](CC(C)C)C(=O)N[C@H](C#N)C[C@@H]3CCNC3=O)cc12 is reported as 4 h (rep main protease; enzyme activity, inhibitor; concentration not given).
The Hill slope of Brc1c(Br)c(Br)c2[nH]nnc2c1Br is reported as 0.91 ± 0.16 (Replicase polyprotein 1ab, nsp14 N7-methyltransferase (rep, Severe acute respiratory syndrome coronavirus 2, UniProt P0DTD1); N7-methyltransferase activity, inhibitor, Py-FLINT).
Under remaining activity, C=C[C@@H]1C[C@]1(NC(=O)[C@@H]1C[C@@H](Oc2ncc(OC)c3ccc(Cl)cc23)CN1C(=O)[C@@H](NC(=O)OC(C)(C)C)C(C)(C)C)C(=O)NS(=O)(=O)C1CC1 is recorded as “no inhibition” (rep papain-like protease; protease activity, inhibitor, fluorescence; 20 µM, 25 °C).
CNC(=O)C[C@H](Cc1ccc(F)cc1)NC(=O)[C@@H](Cc1ccc(Cl)cc1Cl)NC(=O)[C@H](N)Cc1ccccc1[N+](=O)[O-] gave a remaining activity of 33.2% (rep main protease; 3CL protease activity; 1 µM).
For CC1CC(c2ccc(C(=O)O)cc2F)=NN1c1ccc(C#N)c(Cl)c1 (centres unmarked), “lipophilic ligand efficiency” read 1.9 (rep nsp14 methyltransferase).
C[C@](C(=O)NC1CCOCC1)(c1cncnc1)N(C(=O)[C@H](F)Cl)c1ccc(OC(F)(F)Cl)cc1 has an inhibition of 98.9% and 101% (rep main protease; enzyme activity; 1.111 µM).
For O=C(Oc1cncc(Cl)c1)c1ccco1, the Hill slope was 0.99 ± 0.07 (rep main protease; enzyme activity, inhibitor).
The ΔTm of Cc1ccccc1[C@@H](C)N(C)Cc1cc(O)ccc1Cl is reported as 2.18 °C (rep papain-like protease; thermal stability, DSF).
O=C(NC1CCC(F)(F)CC1)C(c1cncnc1)N(C(=O)C(F)Cl)c1ccc(OC(F)(F)F)cc1 (centres unmarked) has an inhibition of 18.1% (rep main protease; enzyme activity, inhibitor; 34 nM).
For O=C(OCC(=O)c1ccc([N+](=O)[O-])cc1)/C(=C/c1ccc(Cl)cc1)NC(=O)c1ccccc1, the Vmax was 28 ± 1.7 RFU/s (rep main protease; enzyme activity, inhibitor; 0.75 µM).
CC(C)CC(NC(=O)OCc1ccccc1)C(=O)NC(CC1CCNC1=O)C(=O)C(=O)NC1CC1 (centres unmarked) gave a ΔTm of 11.1 °C (rep main protease; thermal stability, DSF).
CNC(=O)C[C@H](Cc1ccccc1)NC(=O)[C@@H](Cc1ccc(Cl)cc1Cl)NC(=O)[C@H](N)Cc1ccccc1C#N gave a remaining activity of 101% (rep main protease; 0.0001693 µM).
Cc1cc(C)nc(Sc2nc3sccn3c2[N+](=O)[O-])n1 has a Hill slope of 1.4 and 1.41 (rep main protease; protease activity, SAMDI-MS).
COc1cc2c(cc1OC)-c1c(OC)c(OC)cc3c1[C@H](C2)N(C)CC3: “relative STD saturation” 61.5% (rep main protease; STD NMR, measured: proton H-13; reference: H-8 signal).
O=C(CCl)N1CCN(S(=O)(=O)c2cccs2)CC1 has an inhibition of 102% (rep main protease; enzyme activity, inhibitor, fluorescence; 50 µM, pH 7.2).
O=C(c1cccc(Br)c1)N1CCC(c2ccn3ncc(C(=O)N4CCCCC4)c3c2)CC1 gave a ΔTm of 0.51 ± 0.03 °C (rep nsp3 macrodomain; thermal stabilisation, differential scanning fluorimetry; 150 µM, SARS-CoV-2).
The remaining activity of CNC(=O)C[C@H](Cc1ccncc1)NC(=O)[C@@H](Cc1cccc(Br)c1)NC(=O)[C@@H](N)Cc1cccc(F)c1 is reported as 72.6% (rep main protease; 0.5229 µM).
CC[C@@H](C)[C@@H](C(=O)OC)n1[se]c2ccccc2c1=O has an inhibition of 102% (rep main protease; enzyme activity, inhibitor; 40 µM, mean of repeats).
CNC(=O)CC1CN(C(=O)c2ccc(C(F)(F)F)cn2)CCN1C(=O)c1cccnn1 (centres unmarked) has a remaining activity of 98.5% (rep main protease; 3CL protease activity; 1 µM).
C[C@@H]1C[C@H]2[C@@H](C[C@H]1n1[se]c3ccccc3c1=O)C2(C)C gave an inhibition of 102% (rep main protease; enzyme activity, inhibitor; 40 µM).
CC(=O)N[C@@H](Cc1ccc(O)cc1)C(=O)N[C@@H](CC(=O)O)C(=O)NCCC(=O)N[C@@H](Cc1ccccc1)C(=O)N[C@@H](Cc1ccc(O)cc1)C(=O)NCCC(=O)N[C@@H](Cc1ccc(O)cc1)C(=O)N[C@H](C(=O)N[C@H](C(=O)N[C@@H](Cc1ccccc1)C(=O)N[C@@H](Cc1c[nH]cn1)C(=O)N[C@H](C(=O)N[C@@H](C)C(=O)N[C@H](C(N)=O)[C@@H](C)O)C(C)C)[C@@H](C)O)C(C)C gave a kon of 2.31e+07 M⁻¹ s⁻¹ (rep main protease; binding, SPR; pH 7.6).
For O=C(CCc1ccccc1)NOC(=O)OCc1ccccc1, the KI was 1180 ± 430 nM (rep main protease; enzyme inactivation, inhibitor; 1 to 30 µM).
For O=c1c2cccc([N+](=O)[O-])c2[se]n1-c1ccccc1, the melting temperature was 36 °C (rep main protease; thermal shift; SARS-CoV-2; main protease).

A few entries again:
The Hill slope of Brc1c(Br)c(Br)c2[nH]nnc2c1Br is reported as 0.91 ± 0.16 (Replicase polyprotein 1ab, nsp14 N7-methyltransferase (rep, Severe acute respiratory syndrome coronavirus 2, UniProt P0DTD1); N7-methyltransferase activity, inhibitor, Py-FLINT).
For O=C(Oc1cncc(Cl)c1)c1ccco1, the Hill slope was 0.99 ± 0.07 (rep main protease; enzyme activity, inhibitor).
O=C(O[C@H]1Cc2c(O)cc(O)cc2O[C@@H]1c1cc(O)c(O)c(O)c1)c1cc(O)c(O)c(O)c1 has an Rmax of 47.4 RU (rep main protease; surface plasmon resonance).
For O=C(O)CC[C@H](NC(=O)c1ccccc1[Se][Se]c1ccccc1C(=O)N[C@@H](CCC(=O)O)C(=O)O)C(=O)O, the inhibition was 20.8% and 25.7% (rep main protease; enzyme activity, inhibitor; 40 µM).
With C=CCn1c(C)cc(C(=O)COn2nnc3ccc(S(=O)(=O)N(C)C)cc32)c1C the Hill slope was 1.65 (rep main protease; protease activity, SAMDI-MS).
